Results collected from several papers.
Lines come from different studies, so protocols differ.
WT1: WT1 323-438 (Homo sapiens, UniProt P19544)
Sequence of UniProt P19544 (whole entry, looked up): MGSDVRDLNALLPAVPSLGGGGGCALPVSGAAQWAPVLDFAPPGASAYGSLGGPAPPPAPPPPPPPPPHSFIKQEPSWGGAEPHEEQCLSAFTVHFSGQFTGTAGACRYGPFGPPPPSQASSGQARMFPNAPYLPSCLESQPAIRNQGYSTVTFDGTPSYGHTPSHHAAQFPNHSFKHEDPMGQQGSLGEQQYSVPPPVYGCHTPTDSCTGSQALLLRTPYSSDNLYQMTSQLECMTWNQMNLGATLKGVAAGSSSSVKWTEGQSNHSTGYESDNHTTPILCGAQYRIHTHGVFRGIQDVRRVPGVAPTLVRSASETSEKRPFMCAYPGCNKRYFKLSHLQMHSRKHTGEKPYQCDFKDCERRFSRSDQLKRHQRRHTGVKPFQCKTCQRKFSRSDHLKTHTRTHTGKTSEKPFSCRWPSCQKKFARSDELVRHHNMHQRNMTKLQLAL
U2AF2: U2AF2 148-342 (Homo sapiens, UniProt P26368)
Sequence of UniProt P26368 (whole entry, looked up): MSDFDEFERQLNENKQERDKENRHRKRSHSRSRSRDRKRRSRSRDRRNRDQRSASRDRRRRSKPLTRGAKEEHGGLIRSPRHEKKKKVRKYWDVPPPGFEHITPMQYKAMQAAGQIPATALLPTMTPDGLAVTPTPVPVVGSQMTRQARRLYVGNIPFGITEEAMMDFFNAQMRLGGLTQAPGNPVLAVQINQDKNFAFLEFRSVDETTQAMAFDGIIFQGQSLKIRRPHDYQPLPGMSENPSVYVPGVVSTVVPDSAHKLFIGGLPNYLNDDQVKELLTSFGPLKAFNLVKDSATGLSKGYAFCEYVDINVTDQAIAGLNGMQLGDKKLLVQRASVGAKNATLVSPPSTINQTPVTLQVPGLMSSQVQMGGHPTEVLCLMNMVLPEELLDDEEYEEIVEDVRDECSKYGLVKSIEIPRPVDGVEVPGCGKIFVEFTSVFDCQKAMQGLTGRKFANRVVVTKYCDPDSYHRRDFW
ihfA/ihfB 1-98; 1-95: ihfA/ihfB 1-98; 1-95 (Aggregatibacter actinomycetemcomitans)
T1: ihfA/ihfB 1-98; 1-95 (Aggregatibacter actinomycetemcomitans); chain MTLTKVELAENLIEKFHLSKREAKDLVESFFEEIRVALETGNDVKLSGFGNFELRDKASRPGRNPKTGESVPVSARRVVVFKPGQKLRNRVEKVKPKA; chain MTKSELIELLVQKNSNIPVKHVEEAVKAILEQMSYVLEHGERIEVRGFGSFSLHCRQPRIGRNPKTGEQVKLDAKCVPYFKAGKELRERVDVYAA
Sequence of UniProt O95905 (whole entry, looked up): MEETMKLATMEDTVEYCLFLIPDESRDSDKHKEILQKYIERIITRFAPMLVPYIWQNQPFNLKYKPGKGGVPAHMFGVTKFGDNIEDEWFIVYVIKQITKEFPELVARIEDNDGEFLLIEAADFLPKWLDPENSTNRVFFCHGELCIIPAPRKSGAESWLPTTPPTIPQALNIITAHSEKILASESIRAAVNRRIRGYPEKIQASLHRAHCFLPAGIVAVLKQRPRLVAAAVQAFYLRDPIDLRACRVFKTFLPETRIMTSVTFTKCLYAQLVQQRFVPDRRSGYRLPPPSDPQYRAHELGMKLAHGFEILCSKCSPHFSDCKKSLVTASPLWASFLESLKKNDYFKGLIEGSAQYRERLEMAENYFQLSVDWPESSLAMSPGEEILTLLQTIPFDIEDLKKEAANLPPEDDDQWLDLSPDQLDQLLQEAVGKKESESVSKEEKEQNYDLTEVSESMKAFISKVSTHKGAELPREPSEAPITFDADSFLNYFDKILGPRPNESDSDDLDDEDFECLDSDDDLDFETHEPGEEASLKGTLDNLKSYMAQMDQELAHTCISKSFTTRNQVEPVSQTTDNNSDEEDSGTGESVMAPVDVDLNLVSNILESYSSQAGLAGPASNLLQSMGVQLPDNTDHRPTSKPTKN
Sequence of UniProt Q5NB82 (whole entry, looked up): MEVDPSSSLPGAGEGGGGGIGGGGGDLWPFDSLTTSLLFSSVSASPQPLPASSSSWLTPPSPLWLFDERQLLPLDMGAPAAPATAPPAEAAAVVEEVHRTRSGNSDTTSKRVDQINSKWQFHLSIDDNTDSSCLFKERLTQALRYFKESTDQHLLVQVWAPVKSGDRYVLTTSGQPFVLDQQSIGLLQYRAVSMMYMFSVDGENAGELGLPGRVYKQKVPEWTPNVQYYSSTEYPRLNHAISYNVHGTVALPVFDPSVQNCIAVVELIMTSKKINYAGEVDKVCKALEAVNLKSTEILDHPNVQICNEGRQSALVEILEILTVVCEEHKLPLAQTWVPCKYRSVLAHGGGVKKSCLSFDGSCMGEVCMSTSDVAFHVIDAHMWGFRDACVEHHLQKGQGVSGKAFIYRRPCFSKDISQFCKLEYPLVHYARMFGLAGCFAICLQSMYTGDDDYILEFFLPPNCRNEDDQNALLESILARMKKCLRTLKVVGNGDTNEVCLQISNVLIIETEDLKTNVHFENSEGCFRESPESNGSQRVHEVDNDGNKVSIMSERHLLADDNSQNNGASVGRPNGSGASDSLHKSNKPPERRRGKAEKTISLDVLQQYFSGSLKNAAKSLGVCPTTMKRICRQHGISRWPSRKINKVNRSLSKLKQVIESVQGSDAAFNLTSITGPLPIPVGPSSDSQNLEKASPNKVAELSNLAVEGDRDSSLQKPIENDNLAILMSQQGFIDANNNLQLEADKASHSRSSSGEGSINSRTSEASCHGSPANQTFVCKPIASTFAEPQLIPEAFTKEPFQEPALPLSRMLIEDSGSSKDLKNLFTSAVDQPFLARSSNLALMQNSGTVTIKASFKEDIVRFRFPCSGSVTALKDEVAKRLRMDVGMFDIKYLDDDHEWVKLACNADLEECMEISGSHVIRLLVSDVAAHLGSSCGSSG
Sequence of UniProt O24606 (whole entry, looked up): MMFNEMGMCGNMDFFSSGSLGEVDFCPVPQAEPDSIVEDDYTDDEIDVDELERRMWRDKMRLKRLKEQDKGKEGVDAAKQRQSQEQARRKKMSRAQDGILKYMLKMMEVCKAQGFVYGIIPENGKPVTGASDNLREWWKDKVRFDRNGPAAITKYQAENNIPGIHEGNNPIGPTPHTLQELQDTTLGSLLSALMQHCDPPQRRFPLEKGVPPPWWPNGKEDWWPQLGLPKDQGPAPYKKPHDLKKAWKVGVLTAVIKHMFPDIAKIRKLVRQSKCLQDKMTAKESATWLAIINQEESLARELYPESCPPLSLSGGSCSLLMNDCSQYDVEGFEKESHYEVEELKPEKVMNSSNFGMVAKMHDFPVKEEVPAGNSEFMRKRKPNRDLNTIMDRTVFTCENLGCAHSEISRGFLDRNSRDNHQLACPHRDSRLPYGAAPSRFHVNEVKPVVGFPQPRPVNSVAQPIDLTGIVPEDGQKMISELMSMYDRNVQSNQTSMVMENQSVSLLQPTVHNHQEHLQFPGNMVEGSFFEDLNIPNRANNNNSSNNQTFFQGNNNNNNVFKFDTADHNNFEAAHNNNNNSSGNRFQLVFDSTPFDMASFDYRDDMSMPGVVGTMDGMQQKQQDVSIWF
Sequence of UniProt Q10M41 (whole entry, looked up): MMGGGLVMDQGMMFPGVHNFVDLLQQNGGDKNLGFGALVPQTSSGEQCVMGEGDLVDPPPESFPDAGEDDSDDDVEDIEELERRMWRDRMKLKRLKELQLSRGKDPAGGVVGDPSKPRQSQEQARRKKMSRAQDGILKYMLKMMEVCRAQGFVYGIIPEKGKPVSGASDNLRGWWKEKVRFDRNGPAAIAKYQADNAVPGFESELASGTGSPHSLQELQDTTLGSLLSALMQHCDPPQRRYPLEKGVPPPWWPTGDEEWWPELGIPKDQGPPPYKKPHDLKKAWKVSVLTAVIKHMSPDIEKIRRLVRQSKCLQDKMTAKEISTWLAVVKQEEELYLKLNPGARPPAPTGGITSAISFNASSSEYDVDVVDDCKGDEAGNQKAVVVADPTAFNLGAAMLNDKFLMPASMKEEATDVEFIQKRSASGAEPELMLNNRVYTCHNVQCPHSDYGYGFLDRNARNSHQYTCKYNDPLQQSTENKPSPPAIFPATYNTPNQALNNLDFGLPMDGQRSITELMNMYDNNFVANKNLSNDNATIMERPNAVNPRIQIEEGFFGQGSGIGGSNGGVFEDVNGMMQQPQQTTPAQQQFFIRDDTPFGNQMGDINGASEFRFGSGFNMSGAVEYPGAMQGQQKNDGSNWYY
Sequence of UniProt P02771 (whole entry, looked up): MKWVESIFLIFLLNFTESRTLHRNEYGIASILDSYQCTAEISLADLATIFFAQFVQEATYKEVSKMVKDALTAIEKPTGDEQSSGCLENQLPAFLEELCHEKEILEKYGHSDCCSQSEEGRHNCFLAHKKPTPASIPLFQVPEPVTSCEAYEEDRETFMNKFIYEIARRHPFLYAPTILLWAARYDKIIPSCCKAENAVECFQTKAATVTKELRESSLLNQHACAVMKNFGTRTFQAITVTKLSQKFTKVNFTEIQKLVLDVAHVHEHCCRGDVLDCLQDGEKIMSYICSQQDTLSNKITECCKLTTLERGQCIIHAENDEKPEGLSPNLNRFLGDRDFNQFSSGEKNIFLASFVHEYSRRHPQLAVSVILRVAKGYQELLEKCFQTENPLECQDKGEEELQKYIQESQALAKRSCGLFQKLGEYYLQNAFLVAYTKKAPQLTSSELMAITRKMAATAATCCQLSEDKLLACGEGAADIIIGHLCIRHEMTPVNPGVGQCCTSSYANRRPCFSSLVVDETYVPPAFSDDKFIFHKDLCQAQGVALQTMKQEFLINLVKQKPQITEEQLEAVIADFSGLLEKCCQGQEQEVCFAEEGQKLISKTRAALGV
Sequence of UniProt P05846 (whole entry, looked up): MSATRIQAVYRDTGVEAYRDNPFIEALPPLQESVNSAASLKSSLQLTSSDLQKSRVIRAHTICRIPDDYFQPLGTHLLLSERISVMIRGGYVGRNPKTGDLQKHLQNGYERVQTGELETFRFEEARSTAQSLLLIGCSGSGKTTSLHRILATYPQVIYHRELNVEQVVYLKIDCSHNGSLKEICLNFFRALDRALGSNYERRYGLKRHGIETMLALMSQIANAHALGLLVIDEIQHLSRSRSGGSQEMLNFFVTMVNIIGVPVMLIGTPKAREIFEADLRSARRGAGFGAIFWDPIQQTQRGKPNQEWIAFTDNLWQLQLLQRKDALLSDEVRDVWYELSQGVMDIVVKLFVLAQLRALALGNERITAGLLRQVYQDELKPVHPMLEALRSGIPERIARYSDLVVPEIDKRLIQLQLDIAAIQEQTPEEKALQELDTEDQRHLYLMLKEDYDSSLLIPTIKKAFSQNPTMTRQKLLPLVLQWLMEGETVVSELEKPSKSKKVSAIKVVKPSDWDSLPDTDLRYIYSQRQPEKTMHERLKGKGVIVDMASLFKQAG

| Strand | target | assay | system | conditions | endpoint | result |
| --- | --- | --- | --- | --- | --- | --- |
| AUACAG (ssRNA) | SART3 697-786 (Homo sapiens, UniProt Q15020) | ITC | RNA |  | binding | no binding |
| CAGCTGCTTCGGGAGTTGTTGGTTGAGGTTCCCAAGGCCA (dsDNA) | Transcription factor 1-552 (Triticum aestivum, UniProt G9DR80) | EMSA | double-stranded DNA, one strand shown |  | binding | binds |
| ACCAAGCGGGATGCGGAGCCGCCGCCGCCGTCG (dsDNA; blunt) | WT1 | EMSA | double-stranded DNA, one strand shown |  | binding | no binding |
| AGACTTTCCCCCATTGGA (dsDNA) | Auxin response factor 1-610 (Capsicum annuum, UniProt A0A1U8F1G4) | EMSA | double-stranded DNA, one strand shown |  | binding | no binding |
| UAUAACUUU (ssRNA) | U2AF2 | sequencing of bound RNA | RNA | motif only | Kd | 5.73 µM |
| GACGATGTTGACTGGCTTCC (dsDNA (Saccharum)) | WRKY2 full length assumed (Saccharum hybrid, UniProt A0A5J6RV71) | EMSA | double-stranded DNA, one strand shown |  | binding | binds |
| CACAATAACCACTTCCCTAATAATAAAATTTTTTTATTTTTATTTTGGTTCAAAGGCTCACGATGTTCGCCTAATAAAACGAAGTCGCCTATCGGCTCCGCTGATTTTTATATATCACTCTCGGGGCTTTTGGTGTACTATTGTCTTTTGTAATAGCAAGGACACAAAAAGGGTACTCTTCGAGTTTCCTTTTTGACC (dsDNA) | ihfA/ihfB 1-98; 1-95 | EMSA | double-stranded DNA, one strand shown |  | binding | no binding |
| GTTGAATGTCACCTAGCTAGCACGTGACCCGCCTTTTCCCCGCACG (dsDNA) | Protein BZR1 homolog 1-304 (Oryza sativa, UniProt A0A0P0UYT3) | EMSA | double-stranded DNA, one strand shown |  | binding | binds |
| TAAGAGAATATTTGAAAATTGTCTATGTAGATGAACATGTATTTGAAAATTGCGTAA (dsDNA) | EIN3 1-628 (Arabidopsis thaliana, UniProt O24606) | EMSA | double-stranded DNA, one strand shown |  | binding | binds |
| CTGAAGTTTGGTCAAAATAATACGATGAATTTAATATATAAGAGACAAAATTGTTATTGTCGTTTAGGTGGTATCCATATTTCAATATAGTTTGTGTGAATACAGATATAAAAATGGTTATTGTTGTGTATATGATGCAGTTG (dsDNA) | WRKY40 full length assumed (Arabidopsis thaliana, UniProt Q9SAH7) | EMSA | double-stranded DNA, one strand shown |  | binding | no binding |
| GGGCCGTCCAGAAGCAAAAAAAAAAAACTTCTCCTCCT (dsDNA) | HSFA4D full length assumed (Oryza sativa, UniProt Q93VB5) | EMSA | double-stranded DNA, one strand shown |  | binding | no binding |
| CAGTAATCAACCGGAAGTTATAAAGCATGA (dsDNA) | Etv1 full length assumed (Mus musculus, UniProt P41164) | EMSA | double-stranded DNA, one strand shown | not purified | binding | binds |
| TCAGTTGGCAGGTTGGCAGTAATTTTGACGAAATTCGTTGAAGAATGATA (dsDNA) | WRKY23 (Oryza sativa, UniProt Q7E0X1) | EMSA | double-stranded DNA, one strand shown |  | binding | binds |
| CTCCGTTTCGTGCTACGGTTAGAAAGGCGAAAGCCCCAAGAAATACAAGCACACCTGATAAGCGAGATTTAAGGATAACAGC (dsDNA) | T1, ihfA/ihfB 1-98; 1-95 (Aggregatibacter actinomycetemcomitans) | EMSA | double-stranded DNA, one strand shown |  | binding | binds |
| ACCAAGCGGGATGCGGAGCCGCCGCCGCCGCTG (dsDNA; blunt) | WT1 | EMSA | double-stranded DNA, one strand shown |  | binding | no binding |
| GTTTTGGAATGTTGCGTTGCATGACGTGGAAACATAGTACATGGATTTGGAT (dsDNA) | O2 full length assumed (Zea mays, UniProt P12959) | EMSA | double-stranded DNA, one strand shown |  | binding | binds |
| GCTAGTGCTAGGTGCGTGAAAACGTCGCCCACGTTTTCTAAAACCGGA (dsDNA) | NAC067 1-276 (Oryza sativa, UniProt Q7EZT1) | EMSA | double-stranded DNA, one strand shown |  | binding | binds |
| GCAGCCCTGGTTAAAAACAAGGTTTATAAATATTGGTTTAAAAGCAGGTTAAAAGACAGGTTAGCGGTGG (ssDNA) | trfA 98-382 G254D/S267L/R327E (Escherichia coli, UniProt P07676) | SPR | single-stranded DNA |  | binding | no binding |
| ACCAAGCGGGATGCGTAGCCGCCGCCGCCGCCG (dsDNA; blunt) | WT1 | EMSA | double-stranded DNA, one strand shown |  | binding | no binding |
| CGATGAGAATGGTTCCAAGGCCATGTACTT (dsDNA) | WOX11 full length assumed (Oryza sativa, UniProt Q0D3I7) | EMSA | double-stranded DNA, one strand shown |  | binding | no binding |

| Strand | target | assay | system | conditions | endpoint | result |
| --- | --- | --- | --- | --- | --- | --- |
| DNA 1 GCTTGACCAATGCGGTCGC / DNA 2 GCGACCGCATTGGTCAAG (dsDNA; 5' 1-nt overhang) | BCL11A 730-835 (Homo sapiens, UniProt Q9H165) | X-ray crystallography | double-stranded DNA | with: Zn2+ | binding | binds |
| TTTCTTGGTCCCTGCATGCACGCATGCACTTGGGTCCGGG (dsDNA) | TaB3 1-272 (Triticum aestivum, UniProt A0A3B6ITW4) | EMSA | double-stranded DNA, one strand shown |  | binding | binds |
| TTATTUUUAAGGATTTATTTATTTA (ssDNA; 5-bromo-dU position 6, dU 7-8) | APOBEC3G 1-384 (Homo sapiens, UniProt Q9HC16) | UV cross-linking, MS, SDS-PAGE | single-stranded DNA |  | binding | binds |
| DNA 1 GCAGCCAACTAAACTA / DNA 2 TAGTTTAGTTGGCTG (dsDNA; 5' 1-nt overhang) | TnsC 1-503 (Escherichia coli, UniProt P05846) | EMSA | double-stranded DNA | with: ATP | binding | binds |
| DNA GCGTAGCCACGGCTGTCGAC / RNA GUCGACAGCCGUGGCUACGC (DNA:RNA) | RNase HIII tandem 1-81 domains L52M (Geobacillus stearothermophilus, UniProt Q6L6Q4) | fluorescence anisotropy | DNA-RNA hybrid |  | binding | binds |
| TTTTTTTTTTTTTTTTTTTTTTTTTTTTTTTTTTTTTTTTTTTTTTTTTTTTTTTTTTTTTTTTT (ssDNA) | dinG full length assumed (Escherichia coli, UniProt P27296) | EMSA | single-stranded DNA | with: ATPγS | binding | binds |
| GCAGCUCGGGGAUCAUGGCCCACUGAACCCCCAAGCGC (structured RNA) | NFKB1 41-249 (Homo sapiens, UniProt P19838) | NMR | folded RNA | NaCl 50 mM | binding | binds |
| CCGCCGCTCACGTGGCGAACT (dsDNA) | Clk 1-71 S13D (Drosophila melanogaster, UniProt O61735) | BLI | double-stranded DNA, one strand shown |  | binding | no binding |
| DNA 1 ATACCAGCTTATTCAATT / DNA 2 ATTGCTCCTCAGCAATTGAATAAGCT (dsDNA; 13 bp duplex, 5' overhangs, 5'-NH2) | AFP 19-609 (Homo sapiens, UniProt P02771) | magnetic bead strand displacement | double-stranded DNA |  | binding | no binding |
| TATAGCTAGCTAGGATGATGTATAATGGGCTAATTGAGCT (dsDNA) | EIL1A 1-350 (Oryza sativa, UniProt Q10M41) | EMSA | double-stranded DNA, one strand shown |  | binding | no binding |
| GUUUCCCUA (ssRNA) | U2AF2 | sequencing of bound RNA | RNA | motif only | Kd | 2.75 µM |
| TTTTTT (ssDNA) | CP29A 97-176 (Arabidopsis thaliana, UniProt Q43349) | NMR titration | single-stranded DNA |  | binding | binds |
| GACAAAAGATGTTGACCTTCACGCCTCTCTTCTTAGACCCCACGCGCCACACTCTCACGGTGAGAACATAAATATCAATCTCTCTTTTACCGCCTCCTACCCATTTATCTCTCTCTTTCTCAAAACCTTTCAGTCAAAATTCTCC (dsDNA) | WRKY60 full length assumed (Arabidopsis thaliana, UniProt Q9SK33) | EMSA | double-stranded DNA, one strand shown |  | binding | no binding |
| ACAAAAGTTTATAAATGACTCGGTGTTTGACATAACTCGGGGTTGTTTTTCTTTGTTAATTCACACACGGGGTTGGTGTATAAATGACTTCGGTGTTTGAAATGT (dsDNA) | WRKY46 1-295 (Arabidopsis thaliana, UniProt Q9SKD9) | EMSA | double-stranded DNA, one strand shown |  | binding | binds |
| AACCTCTTTTGTCATTTTGTGTCATAA (dsDNA) | NLP3 full length assumed (Oryza sativa, UniProt Q5NB82) | EMSA | double-stranded DNA, one strand shown |  | binding | binds |
| AGGCAAGAUGCUGGCAUAGCUGUUGAACUGGGAACCUGCUAUGCCAACAUAUUGCCAU (structured RNA) | Dicer/TRBP (Homo sapiens) | EMSA | folded RNA |  | binding | binds |
| TAAATTGTAAGCGTTAATATTTTGTTAAAATTCGCGTTAAATTTTTGTTAAATCAGCTCATTTTTTAACCAATAGGCCGAAATCGGCAAAATCCCTTATA (ssDNA) | protein full length assumed (Mycosarcoma maydis, UniProt Q8NJ74) | EMSA | single-stranded DNA |  | binding | binds |
| AGCGUGCCGUGCAACAACAUUACAAUUUACAAUCCACCAUGG (ssRNA) | ECD 439-644 (Homo sapiens, UniProt O95905) | EMSA | RNA |  | binding | no binding |
| AAAATAATTTTACTTTTTAAGTTTGTTAG (dsDNA) | NAC2 1-315 (Actinidia chinensis, UniProt A0A075EAR8) | EMSA | double-stranded DNA, one strand shown |  | binding | binds |

Some of these lines once more:
| Strand | target | assay | system | conditions | endpoint | result |
| --- | --- | --- | --- | --- | --- | --- |
| UAUAACUUU (ssRNA) | U2AF2 | sequencing of bound RNA | RNA | motif only | Kd | 5.73 µM |
| GACGATGTTGACTGGCTTCC (dsDNA (Saccharum)) | WRKY2 full length assumed (Saccharum hybrid, UniProt A0A5J6RV71) | EMSA | double-stranded DNA, one strand shown |  | binding | binds |
| CACAATAACCACTTCCCTAATAATAAAATTTTTTTATTTTTATTTTGGTTCAAAGGCTCACGATGTTCGCCTAATAAAACGAAGTCGCCTATCGGCTCCGCTGATTTTTATATATCACTCTCGGGGCTTTTGGTGTACTATTGTCTTTTGTAATAGCAAGGACACAAAAAGGGTACTCTTCGAGTTTCCTTTTTGACC (dsDNA) | ihfA/ihfB 1-98; 1-95 | EMSA | double-stranded DNA, one strand shown |  | binding | no binding |
